Measurements of several laboratories.
Every numbered part comes from another study and shows a few of its results, in no order. Substitutions count along the parent as printed.

Sample 1
Target: ABI1, truncated, D143A, DHFR fusion (Arabidopsis thaliana, UniProt P49597)
Technique: DHFR PCA, dose-response
Medium: yeast
Setting: Hill fit, mean, not affinity
Together with: (+)-ABA, dose series
Reading: lower = more sensitive
Parent: PYL1, truncated, DHFR fusion (Arabidopsis thaliana, UniProt Q8VZS8); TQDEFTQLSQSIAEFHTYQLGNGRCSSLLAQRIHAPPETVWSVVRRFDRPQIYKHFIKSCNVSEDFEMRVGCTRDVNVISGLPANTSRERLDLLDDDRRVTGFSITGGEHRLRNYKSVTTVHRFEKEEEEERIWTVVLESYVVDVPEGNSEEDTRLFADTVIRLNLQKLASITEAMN
Change | ABA EC50 [µM]
K116H | 5.31
D144W | 336
S150N | 2.9
A13N | 4.06
E174Y | 35.7
N165D | 313
V136Y | 4.76
P36R | 4.09
D3S | 3.46
A30E | 7.53
A170G | 8.75
E127D | 1.67
T73D | 50
R99A | 40.3
M68Q | 6.8
P36C | 5.83
T119F | 360
E130V | 2.97
G148A | 21.5
F5C | 2.59
V121T | 127
C72E | 2.52

Sample 2
Target: Histone acetyltransferase KAT6A, winged helix 1, GST fusion (KAT6A, Homo sapiens, UniProt Q92794, residues 1-85)
Technique: protein binding microarray
Molecule type: double-stranded DNA, one strand shown
Medium: in vitro
Concentration: not given
Setting: 8-mer, flanks averaged, mean of 2 arrays, mostly near background
Baseline: not given
Reading: higher = stronger binding
Target sequence (chain): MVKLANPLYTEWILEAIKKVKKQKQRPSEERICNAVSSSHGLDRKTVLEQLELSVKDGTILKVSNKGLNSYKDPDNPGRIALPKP
Strand | E-score
AACCATGA | 0.0122
CGTCGACC | -0.0714
AAGAAGTA | -0.052
ACGTTAAT | -0.0179
AATTCAAT | -0.153
ACCCTGTC | -0.0369
AAGCAAGG | -0.236
CTCAGGAA | -0.146
ATCGACAG | -0.0796
GTCGGTAA | 0.225
AGGACTGC | -0.173
CCGATCCA | 0.11
CACAAATC | -0.0149
AAGAGGAC | -0.147
CCCTTATA | -0.00106
GCAATACA | 0.167
CACACTAC | -0.0666
ACGAACCA | -0.0847
GTCGACAC | -0.113
CATAGCCC | -0.168
AAGATTTA | -0.105
TGCCAGCA | -0.199
AGCTATCG | -0.156
GACGATCC | -0.139
ACCTCTTG | -0.152

Sample 3
Target: Centromere-binding protein 1, full length, N-terminal tag (CBF1, Saccharomyces cerevisiae, UniProt P17106, residues 1-351)
Chain of UniProt P17106 (whole entry, looked up): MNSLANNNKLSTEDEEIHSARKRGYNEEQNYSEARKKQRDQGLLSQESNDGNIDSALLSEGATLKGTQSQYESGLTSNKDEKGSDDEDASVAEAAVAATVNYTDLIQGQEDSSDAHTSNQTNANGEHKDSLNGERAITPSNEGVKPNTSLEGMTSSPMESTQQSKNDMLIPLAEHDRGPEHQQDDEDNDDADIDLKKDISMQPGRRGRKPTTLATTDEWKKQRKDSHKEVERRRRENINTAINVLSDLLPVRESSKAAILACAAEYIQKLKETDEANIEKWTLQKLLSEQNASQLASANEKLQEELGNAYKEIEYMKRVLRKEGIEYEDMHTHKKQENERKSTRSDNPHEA
Technique: protein-binding microarray
Molecule type: double-stranded DNA, one strand shown
Medium: in vitro
Concentration: 0.8 µM
Setting: whole 60-bp probe, no competitor
Reading: higher = stronger binding
Shared flanks, not repeated: … GTCTTGATTCGCTTGACGCTGCTG
Strand | fluorescence intensity [a.u.]
GAATAATAGCGTCGTTACGTCACATATGGTCAGTAG | 580
CCTAACTACTATAATGGCGTGTGATAGCTTCGTACA | 581
TGTACGAAGCTATGTGGTGTCATTATAGTAGTTAGG | 551
GAATTCAGAGAGCAGGTGATGACAAAAGTTACGTAG | 1690
TGTACGAAGCTATATGGCATGACTATAGTAGTTAGG | 541
GAAATAGTCTTCTATCTGATGCTTTCGTACTCTTAG | 514
CTACTGGTCCAAGAAGACGTGATTTACAAGACATTC | 619
GAACCTGCATGAAGGCACGCTCTAATATATATGTAG | 574
CTAATTTAGAATCAATAGGTGATGTCCACCCGGTTC | 519
GAAATTACCCATACAGGAGATATCTCCAACATATAG | 495
CTATTATACCACCACCACATGCCATACTCACCCTTC | 555
CTACGAGAAACTGGGCGTGTGTGCTAACCAAGATTC | 529
CTAAATATACATATTCACGGGATACTAGGAGGTTTC | 598
CTACATCGGTATTGTGGTGACATTTATTGAATTTTC | 555
CTACTATTCTAAAATCACGTATATTGTGTATGTTTC | 595
CTATTTTTTGCTACGAACGTGGCCCTTTTTATGTTC | 549
GAAAATGAACACTCTCATGTGATTAAAATGTATTAG | 1560
GAACATGCTGAAGGGAACGTGCGAGAAAAAAATTAG | 687
GAAGAGCTAAAAAGTCACGTATGTAGTGCTAATTAG | 658
CTATGGTACTACTGTCCTGATGTAGGCTCCTTATTC | 508

Sample 4
Target: Prothrombin, mature alpha-thrombin (F2, Homo sapiens, UniProt P00734)
Technique: aptamer microarray, sandwich
Molecule type: DNA with 2'F-ANA
Medium: in vitro
Concentration: 200 nM
Setting: whole 15-mer aptamer, many near background
Together with: Cy3 exosite-II aptamer, 400 nM
Reading: higher = stronger binding
Strand: GGTTGGTGTGGTTGG
Modification | mean fluorescence intensity
2'F-ANA at 1 2 3 5 8 10 13 15 | 74 a.u.
2'F-ANA at 2 4 5 6 7 10 11 12 14 | 45.1 a.u.
2'F-ANA at 1 4 5 7 8 9 10 | 54 a.u.
2'F-ANA at 5 7 11 12 13 14 | 46.6 a.u.
2'F-ANA at 1 3 4 6 12 14 | 88.6 a.u.
2'F-ANA at 1 2 3 6 7 9 13 14 15 | 65.8 a.u.
2'F-ANA at 3 4 5 6 7 8 9 13 14 | 51.7 a.u.
2'F-ANA at 1 2 4 6 7 8 10 11 14 15 | 55.9 a.u.
2'F-ANA at 2 5 7 9 10 12 13 14 15 | 52.3 a.u.
2'F-ANA at 1 2 3 6 7 8 10 12 14 | 163 a.u.
2'F-ANA at 2 4 6 7 9 10 13 14 | 55.4 a.u.
2'F-ANA at 1 2 3 4 6 11 12 | 249 a.u.
2'F-ANA at 1 2 8 9 10 11 12 15 | 64.7 a.u.
2'F-ANA at 9 12 13 14 15 | 225 a.u.
2'F-ANA at 2 11 13 | 340 a.u.
2'F-ANA at 1 4 8 10 13 | 50.1 a.u.
2'F-ANA at 1 3 4 5 6 10 13 14 15 | 56.6 a.u.
2'F-ANA at 3 4 5 6 7 8 11 14 15 | 53.6 a.u.
2'F-ANA at 2 5 8 10 11 12 13 | 104 a.u.
2'F-ANA at 1 5 6 8 9 11 12 13 14 | 48.2 a.u.
2'F-ANA at 4 5 8 10 13 14 15 | 46.4 a.u.

Sample 5
Target: RNA binding protein fox-1 homolog 2, RRM domain, GST-SBP tag (RBFOX2, Homo sapiens, UniProt O43251-10, residues 100-194)
Technique: RNA Bind-n-Seq
Molecule type: RNA
Medium: in vitro
Concentration: 365 nM
Setting: natural RNA segment, single round, ends assumed
Baseline: no-protein control
Reading: higher = stronger binding
Shared flanks, not repeated: GGGAGUUCUACAGUCCGACGAUC … UGGAAUUCUCGGGUGCCAA
Construct (chain): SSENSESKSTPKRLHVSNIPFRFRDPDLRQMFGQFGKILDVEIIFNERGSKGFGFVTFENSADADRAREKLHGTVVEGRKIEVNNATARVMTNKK
Strand | RBNS enrichment (R)
GGAGACCAGUUGAGCACAGUCUGUGAGCAGUGCCCUUCCUCUCCCACUUGUCAAGAUUUCCCCUUUAGCGUGCUUGCUCCUCACCCCACCUGUACCUCCCUAUGUCCCCA | 1.33
CCUUGUCAUAGACCUUAUUAGGGUUUGGGGUUUUGUUCCUUCGUUGUUUUCCUCUCACUAUUUAAAGUUGACUAGAAGAGAAGAGUUGUGUGUUGAGGCUAAGUUGGUGG | 0.599
UACUGCACCACCUUGAAAAUGUUGUUUCCAGUUUUAAAAUAAGCAAUAAAUAUUUGAAAUGCUUCUGAUUUUUCAUUUUCAUUUAAAAACAUUAAAUUAAAUGUAAUGAG | 0.974
CUCAAAUAAGCAGUAGUUUUUUUGUUGUUUAUUUUUAAUGAAACAGCUGUGUUAAGGCGCUGCUUCAGAUGCAAGUUCACCUGGAAAUACUGGUCAGCGGGCAGCACGUC | 4.4
GUAAUUUGAUAUAUUUCAUGGUGGCAAAAUAUUAGCUCUAUUUUGGGACUUUUUCUAGACUUACAUUUAUUCAAAUGCAUAGGAAUAUGUCCUUGUGAUUAUCAGGAUCU | 0.384
ACUGUAUGCAUGUAGUGCACAAACACGUGACGGAGGAACACAUAAAAGGCUUGUAUGUGUUAUCAUUUAAGGUCACUGUUCCCAAUUAAAAGCCUUCAACCAUGAUUUUC | 1.55
GACUUUUGGGGAUAGAUCUGUCUGGGAGAUAAUGUGAGUCCAGGAGGCAUUACUCUUCCCUGCCUCACAUCAAGGUGCCAUUCAGGUAGUUGGCUCCCAGCUACUUAACG | 0.282
UGGAGGAGGGAGGCCACAACUCCGAGCUGCCCACCUGGUGCUGAGCUGGGGCCCCGCCUCCUUUCUGUUUUAUUUUUGAGGAAAUAAAAUAACCAAGUGCUAAAUCUUGU | 0.44
AGACACCUACAGUUACUGAAGUCUCUCAGAAACUCAGGGAAUAUUGAAAACCCAUGCUGUGAACUGUUUUACAAACUUACAGAGAUAAAUGCAUUUGAUUAUCCUGAUUU | 1.92
GAAGGACUGUGGCCUCUUCUGAGGGGCAGUGGACCUGGCAGGAUGGGCCACCGCUGACUGUGCUCCCCACUACCCCUGAGGAAGAUGGGGGCAAGAAGACCAUGUUCCCU | 0.232
UAAAAUCAUGUUUGUGACUGUAACCAUUUGUAUGAAUUAUUUUAAAGAAAUAAAAAUCCUGGAAAGACCAGCGUGCCCAGCAUCUAUUCUGGUGACUUUCUCUCAUGAGG | 1.16
UACCCAUGAGCUGUCGUCAUUCACAGAGCCCUGUGCCAGGCCGUGUUCUGUGCCUGCCUGCGGUGAUGUAGCCAGAAGCACGUACUCAGGUCAUCAAGCCGAGAGGGCGU | 1.15

Repeated from above (sample 1):
Change | ABA EC50 [µM]
M68Q | 6.8
P36C | 5.83
T119F | 360
E130V | 2.97
G148A | 21.5
F5C | 2.59
V121T | 127
